Published values gathered from unrelated publications.
A part holds a random share of what one study measured.

Series 1
Target: RNA binding protein fox-1 homolog 2, RRM domain, GST-SBP tag (RBFOX2, Homo sapiens, UniProt O43251-10, residues 100-194)
Method: RNA Bind-n-Seq
Molecule type: RNA
Matrix: in vitro
Concentration: 365 nM
Notes: natural RNA segment, single round, ends assumed
Reference: no-protein control
Direction: higher = stronger binding
Shared flanks, not repeated: GGGAGUUCUACAGUCCGACGAUC … UGGAAUUCUCGGGUGCCAA
Construct (chain): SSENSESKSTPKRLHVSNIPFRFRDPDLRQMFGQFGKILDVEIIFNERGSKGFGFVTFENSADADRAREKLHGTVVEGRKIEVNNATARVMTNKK
Strand | RBNS enrichment (R)
AGCGUCCUUACCUUCUCUCAUUCCCCAGCUCUCAUUCUGAGCCUUUGGUCCCUGACCUUAUGGCCAUCUUGGAGGUCAGUUGUUCCCUGUGGUUGACUGAACUGCUGUUG | 0.277
GAAACGCCCCGUGUUAAUAACUUGGUCUGAAAUUGUUUUUAUGAGCCGGGCCCCCUGUGCCUCUAGCAUAUGUGUAUUGACUCUCAUAGUUACCCUUUUCGUUUACUGUG | 0.496
AUCCCCUGCUUCCUGUUCCUUCAGCCUCCCUUCCCUUUCCUUCCUGGAUCUCUGAUUAUCUUGUGAUCAUAGCACCUGCUGUCGGCACACUCCCGUGAGUCCUGUGGUCA | 0.909
UCAAGAACACAAACGUUUUACCCCCUAUUGUAUGCCUUUGCUGAGGGUAUGUCCUGCUCCUUUCCACCAGUGAUUUGUAUUAAGACAGCACUUAUAUUGUACAAUACUUC | 4.35
GGGCUCCUCCCCGAGGGCUUGCUCCUGGUGGCAGCAGCUGAGAUCAGGACAUCUGUGGCCCUGAGCCGGCUCUGGUCCUCGGCCUUUCCCAGCCUUCCCACAUCUUCCCA | 0.293
AUUACUUAACCACUGCUGUCCCUCGGUCCCUUUUUCCUAAACGGGUUUAGUUCUGUCUUUUUUCUCCUUUUUUCUAAAUGCUGGUAAAUAUUUACAUUCAGCCAGGGAAG | 0.477
UGCAAGCCCGUAACCCUCCAGAGCUCCUUCACACUGCGCUCUCCAAACCACCCCAUCCUCACAGCGAGCUUAUCCCUACCUCUGCGUGACACUGAGCAGGCAGAUUAGCA | 1.67
UCAGACUGAUGUCAGCCAGCCUUCUUGGAACACAUUGCUAUUCAUUGUGGAUGCCACACAGUCCAUCUGGGGUGCCCUGUGCCUCCCAUUUUCACAGCCGCCCACUGUUG | 0.203
AGGAACGUACUUAUGUAGGACAGAGGUUAGCAACCUGUGGGUCAUGACCCCUUUGGGGAUCAAACUACGCUUUCACAGGGGUCACCAAGGACCAUUGGAAAACACAGAUU | 0.409
UUUGACUUCCUCUUUUCCUAAUUGAAUACCCUUUAUUUCCUUCUCCUGCCUAAUUGCCCUGGCCAGAACUUCCAACACUAUGUUGAAUACGAGUGGUGAGAGAGGGCAUC | 0.669
UCUAGACUGGUCUCAUCUCCAUUGCCUUAAUGCCAGGUGGCCCAGGAGUACCCAUGCACAGCAGCUGUGGGGUGUGGGCAUCUUCAGGUGGUGUUCUGGUAAAAUUGUUA | 0.461
GUAAAUGCUAAUGCAGCCCAGCCCUGCCUGUUGUUUUGGAUCCUUGGUGUCUCAUGUGUACUUCCUGUCUGUCCCCUUUGAUGGCUGUGCGGUCAUCCUAUCGGCGUGGC | 0.552

Series 2
Target: Histone acetyltransferase KAT6A, winged helix 1, GST fusion (KAT6A, Homo sapiens, UniProt Q92794, residues 1-85)
Method: protein binding microarray
Molecule type: double-stranded DNA, one strand shown
Matrix: in vitro
Concentration: not given
Notes: 8-mer, flanks averaged, mean of 2 arrays, mostly near background
Reference: not given
Direction: higher = stronger binding
Residues (chain): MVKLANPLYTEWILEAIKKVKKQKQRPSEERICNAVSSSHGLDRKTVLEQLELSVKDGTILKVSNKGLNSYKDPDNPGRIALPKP
Strand | E-score
CCCATTCC | -0.242
AACCAAAA | -0.197
AGCACCGG | 0.198
ACTACGGC | 0.318
CACAAACC | -0.168
CAGAAACG | -0.0285
TATACAGA | -0.0541
ACCGTTAA | 0.0575
GCGGAACA | 0.265
GGGCACAC | -0.197
TCTACCAA | -0.154
GAACAAAC | -0.129
CACGAAAC | 0.0126
AGTCTAGG | -0.0967
CCTTTTTC | -0.203
CGAATATA | -0.119
ATTCGATC | -0.0246
GCATGGAA | 0.044
AAGTAGCT | -0.24
ACCGGAAG | 0.262
AGTTTATA | 0.0143
TCAGAGAA | -0.177
CAAGAGAA | -0.128
GCTACAGA | -0.196
ATCGGTGG | -0.00651

Series 3
Target: RING finger protein unkempt homolog, zinc fingers 1-6, GST-SBP tag (UNK, Homo sapiens, UniProt Q9C0B0, residues 30-357)
Method: RNA Bind-n-Seq
Molecule type: RNA
Matrix: in vitro
Concentration: not given
Notes: RNA with constant flanks, human and mouse sites, ends assumed
Reference: input RNA pool
Direction: higher = stronger binding
Shared flanks, not repeated: GGGAGUUCUACAGUCCGACGAUC … CAACAGAGGAUUGAGCAUCA
Residues (chain): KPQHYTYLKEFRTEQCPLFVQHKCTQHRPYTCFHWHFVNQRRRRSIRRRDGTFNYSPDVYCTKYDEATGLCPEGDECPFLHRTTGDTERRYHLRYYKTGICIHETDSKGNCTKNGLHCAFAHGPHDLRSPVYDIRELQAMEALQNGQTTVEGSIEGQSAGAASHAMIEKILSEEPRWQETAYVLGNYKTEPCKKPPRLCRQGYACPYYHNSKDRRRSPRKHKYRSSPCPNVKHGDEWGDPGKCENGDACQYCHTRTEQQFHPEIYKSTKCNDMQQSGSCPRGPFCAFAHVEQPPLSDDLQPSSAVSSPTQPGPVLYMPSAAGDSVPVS
Strand | bound/input enrichment
AGAGAUUUUAUUUGCAAGUUAAUCAAAUAUUGGACAUUUAGAUUUUUUCUACUUUCUGGCUAGUAUAAGUAAUGCUGCUAGAACAUUUAUGUAAUUUUUGUAUGUGGUCAUGGUUUCUUU | 6.29 ratio
GGAGGCUGGGAGAUGAUCAGAAAAAUUGGAGACACAUCAGUCAGUUAUAAAUAUACCUCAAGAUAUGUGCUGAAGGCAGGCCAGACUGUUACAAUUUGGGCUGCAAACGCUGGUGUCACA | 0.382 ratio
CCUUCCCCUCCUACUACAACCACUGAGCCUGCUUCAGCCUCUGCCUCGACCACCACAGCUGUGACGGCUGUCACUACGGAAGUGGAUCUCUUUGGAGAUGCCUUUGCAGCUUCUCCUGGG | 0.475 ratio
ACAUGCUUUUGUAACGAGCAAAUGUCUAAAGUGACAACACGGAAAAAUAAAUACAGGAUCAUCAUUGAGUUGCUUAACAAAUAUACUUAAGAACAUUAAUACAGUCAUUUUGAGAAAAGU | 0.269 ratio
GGAACCAUCCUAAUGGAGACACACAAAACUGUUGGGCAGCAGAUGCUGAGCUUCCCCCACCUCCUGCAGACAGUGCUGCACAUCAUCCAGGUAGUCAUCAGCUACUUCCUCAUGCUCAUC | 0.303 ratio
AAUGCUGGUUGUCUGGUUUUGUUGUUUUUACAGGUGUUAUGAAAUAAUAAGAAAAUGAAGUAUUUAAAAUGUUCCAAUAAAGCGGGGUUUUGUUAUCUAAUAUAUUAUCAUGUACCUAUU | 0.26 ratio
UUUAUUGCAGCAGUUGACCUAGAUGAGAUGUCGUUCACUUUUACUGAGCUACAGAAAAACAUAGAAAUCAGUGUCCAUAAAUUCUUUAACUUACUAAAAGAAAUUGAUACCAGUACCAAA | 0.541 ratio
CUGCCCAUUCUGAAAGGAGACAGAAACUUAACCUGGAGGUCAGACGUGCUGGUGGAAUAUCAAGGAGAAGGCCGGAAUGUCACCGACCCGACCUGCCCUUCUUUGAGUCCUGGAGUGUCU | 0.0773 ratio
CAUGGCUGUGCUGGUCGUUCUCCUGUUCUUUCUGGUGGCGGGUGCUUUAGGGAAUGAAUUUAGCAUAUUAAGAUCGCCAGGGUCUGUUGUUUUCCGAAAUGGAAAUUGGCCUAUACCAGG | 8.29 ratio
UUUUUUUCCUUUUUCUUUUAAUUUAAUGCUGUAGAGGGUGACUUGCCAUCGUGAGAGAUUGGUACAUGAUGUGUAAAUUCAGUUCAGCAUAUGUUUCUUCAUUAUGAAACCACUAGCAAU | 3.55 ratio
GACAUGGAAACAUAUGAGAGACUGAGAGAAAAACAUGGAGAAGAGUUUUUCCCAACAUCCAAUAGUCUUCUUCAUGGAACACAUGUGCCUUCCACAGAGGAAAUUGACAGGAUGGUCAUA | 0.197 ratio

Series 4
Target: Ras GTPase-activating protein-binding protein 1, full length (G3BP1, Homo sapiens, UniProt Q13283)
Sequence of UniProt Q13283 (whole entry, looked up): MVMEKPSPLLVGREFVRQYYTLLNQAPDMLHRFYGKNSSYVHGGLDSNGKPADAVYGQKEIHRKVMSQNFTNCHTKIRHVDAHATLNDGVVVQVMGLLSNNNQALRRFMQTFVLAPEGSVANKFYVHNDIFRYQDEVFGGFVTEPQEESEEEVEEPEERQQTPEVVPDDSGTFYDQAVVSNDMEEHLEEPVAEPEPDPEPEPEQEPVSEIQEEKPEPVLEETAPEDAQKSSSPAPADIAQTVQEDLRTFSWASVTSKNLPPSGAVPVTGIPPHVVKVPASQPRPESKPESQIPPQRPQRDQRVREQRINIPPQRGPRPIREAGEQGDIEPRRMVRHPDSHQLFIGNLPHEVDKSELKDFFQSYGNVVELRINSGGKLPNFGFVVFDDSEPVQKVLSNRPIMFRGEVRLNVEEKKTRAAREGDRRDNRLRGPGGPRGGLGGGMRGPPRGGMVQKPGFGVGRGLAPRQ
Method: RNA Bind-n-Seq
Molecule type: RNA
Matrix: in vitro
Concentration: 200 nM
Notes: whole 134-nt RNA, ends assumed
Added: 150 mM LiCl
Reference: input library
Direction: higher = stronger binding
All molecules: 7-deaza-guanosine replaces G
Shared flanks, not repeated: GGGAGUUCUACAGUCCGACGAUC … UGGAAUUCUCGGGUGUCAAGG
Strand | log2 enrichment
UGGCCCUGGUGGCAUGCGGGGAGGAAGAGGUGGCCUCAUGGGUCGUGGUGGUCCCGGUGGAAUGUUCAGAGGUGGCCGUGGUGGAGACAG | 0.257
CACAGACAACACGCACCCACACAGACACAGAGGGAAGGGGUUGGGAUGGGGACAGGGUGCACAGCAGGGCGGUGUAGGACCCCAGCCCCU | 0.719
GCAGGAAGUAAAAACAAAUGGAAAUGCUUCGGAUAGUGGCAGGGGUGGGGGUUGCUAAGGAAAGGGUGGGAUGGGAGUGGAAAAAGAGUU | 0.0636
CUGUGCUACACAUCGUAUGUACCGAAUCGGGAAAAAAAGGGUUUUUUUGGGAAAAAAAGGGAAAGUAUUAUGUUACGCCGUUCGGAUCUG | -1.45
UGCGAGGUGGAUUUUGUUUAUUUUUUUAGCUCAUUUCCAGGGGUGGGAAUUUUUUUUUAAUAUGUGUCAUGAAUAAAGUUGUUUUUGAAA | 0.202
CAAGUCCUGUGCUACACAUCGUAUGUACCGAAUCGGGUGGGUUUUUGGGUUUGGGAAAGUAUUAUGUUACGCCGUUCGGAUCUGCACUUC | -0.951
ACCAUGCAGGUGGGCAUCUUUGGGAAGUGGGGCAAGGGGGGGAUAGGGAGGGGGGUAACACUUUGGGAACAGGUGGUCCCAGGUCGAAAC | 0.152
UGGCACUGGUGGCAUGCGGGGAGGAAGAGGUGGCCUCAUGGAUCGUGGUGGUCCCGGUGGAAUGUUCAGAGGUGGCCGUGGUGGAGACAG | -0.132
AGUCCUGUGCUACACAUCGUAUGUACCGAAUCAAACCCAAACCCCCCCAAAUUUAAAAAAGUAUUAUGUUACGCCGUUCGGAUCUGCACU | 0.976
UUCAGUUUCCCAAACCUGAGAUGAUCUGUCAGCUGGAGAACUGGGACGAGCAGUGGAUCCUGGAUCUACCGAGAACUGGGAAUAGGAAGG | 0.915
CACAGACAACACGCACCCACACAGACACAGAGGGAAGGGGUUGGGAUGGGGACAGGGUGCACAGCAGGGCGGGGUAGGACCUCAGCCCCU | 0.0962

Some of these lines once more (series 4):
Strand | log2 enrichment
CUGUGCUACACAUCGUAUGUACCGAAUCGGGAAAAAAAGGGUUUUUUUGGGAAAAAAAGGGAAAGUAUUAUGUUACGCCGUUCGGAUCUG | -1.45
UGCGAGGUGGAUUUUGUUUAUUUUUUUAGCUCAUUUCCAGGGGUGGGAAUUUUUUUUUAAUAUGUGUCAUGAAUAAAGUUGUUUUUGAAA | 0.202
CAAGUCCUGUGCUACACAUCGUAUGUACCGAAUCGGGUGGGUUUUUGGGUUUGGGAAAGUAUUAUGUUACGCCGUUCGGAUCUGCACUUC | -0.951
ACCAUGCAGGUGGGCAUCUUUGGGAAGUGGGGCAAGGGGGGGAUAGGGAGGGGGGUAACACUUUGGGAACAGGUGGUCCCAGGUCGAAAC | 0.152
UGGCACUGGUGGCAUGCGGGGAGGAAGAGGUGGCCUCAUGGAUCGUGGUGGUCCCGGUGGAAUGUUCAGAGGUGGCCGUGGUGGAGACAG | -0.132
